Experimental data gathered from unrelated publications.
± marks the error that the study gave.

For Cc1ccccc1-c1ccc(-c2nc(-c3ccc(CN(C)CCCC(=O)O)c([18F])c3)no2)cc1C(F)(F)F, the tissue uptake was 0.83 ± 0.2 %ID/g (Sprague Dawley rats, male, pancreas; 5 min).
The tissue uptake of CCCC[C@H]1C(=O)N(C)[C@@H](CCCC)C(=O)N[C@@H](CCCNC(=O)CN2CCN(CC(=O)O)CCN(CC(=O)O)CCN(CC(=O)O)CC2)C(=O)N[C@H](C(=O)NCC(N)=O)CSCC(=O)N[C@@H](Cc2ccc(O)cc2)C(=O)N(C)[C@@H](C)C(=O)N[C@@H](CC(N)=O)C(=O)N2CCC[C@H]2C(=O)N[C@@H](Cc2c[nH]cn2)C(=O)N[C@@H](CC(C)C)C(=O)N(C)CC(=O)N[C@@H](Cc2c[nH]c3ccccc23)C(=O)N[C@@H](CO)C(=O)N[C@@H](Cc2c[nH]c3ccccc23)C(=O)N1C [gallium-68 labelled] is reported as 4.47 ± 1.7 %ID/g (NOD/SCID mice with CHO-hPD-L1 xenograft, spleen; 120 min post injection).
CSCC[C@H](NC(=O)CNC(=O)[C@H](CCCCN)NC(=O)[C@H](CC(C)C)NC(=O)[C@@H]1CCCN1C(=O)[C@H](CO)NC(=O)[C@H](Cc1c[nH]cn1)NC(=O)[C@H](Cc1c[nH]c2ccccc12)NC(=O)[C@H](CCCNC(=N)N)NC(=O)[C@H](CC(C)C)NC(=O)[C@H](CCCNC(=N)N)NC(=O)[C@H](Cc1c[nH]c2ccccc12)NC(=O)[C@H](CS)NC(=O)CCCCCNC(=O)CN1CCN(CC(=O)O)CCN(CC(=O)O)CCN(CC(=O)O)CC1)C(=O)O [copper-64 labelled] has a tissue uptake of 0.43 %ID/g (ex vivo biodistribution; male C57BL/6J mice, muscle; intravenous, 1.85 MBq, 30 h, B16-F10 tumour-bearing).
CC(C)C[C@@H](NC(=O)[C@@H](CCCNC(=N)N)NC(=O)[C@@H](Cc1c[nH]cn1)NC(=O)[C@@H](Cc1c[nH]c2ccccc12)NC(=O)[C@@H](Cc1c[nH]cn1)NC(=O)[C@@H](Cc1ccccc1)NC(=O)[C@H](NC(=O)[C@@H](Cc1ccc(O)cc1)NC(=O)CNC(=O)CNC(=O)CCOCCOCCOCCNC(=O)CN1CCN(CC(=O)O)CCN(CC(=O)O)CC1)[C@H](C)O)C(=O)N[C@H](CC(N)=O)C(=O)N1CCC[C@@H]1C(=O)O [gallium-68 labelled] has a tissue uptake of 0.54 ± 0.26 %ID/g (gamma counting; C57BL/6 mice, male, bone; intravenous, 1.85 MBq, 60 min).
CC[C@H](C)[C@H](NC(=O)[C@H](CCCCN)NC(=O)CNC(=O)[C@H](CC(C)C)NC(=O)[C@H](Cc1ccccc1)NC(=O)[C@H](CCCCN)NC(=O)[C@H](CO)NC(=O)[C@H](Cc1ccccc1)NC(=O)[C@H](Cc1c[nH]c2ccccc12)NC(=O)[C@H](CCC(N)=O)NC(=O)[C@@H](NC(=O)[C@H](Cc1ccccc1)NC(=O)CCCCCNC(=O)CN1CCN(CC(=O)O)CCN(CC(=O)O)CCN(CC(=O)O)CC1)C(C)C)C(=O)N[C@@H](CCC(=O)O)C(=O)N1CCC[C@H]1C(=O)N[C@H](CC(=O)O)C(=O)N[C@H](C(=O)N[C@@H](CO)C(=O)N[C@@H](CCC(N)=O)C(=O)N[C@H](C(=O)N[C@@H](CCC(N)=O)C(=O)N[C@@H](CC(=O)O)C(=O)N1CCC[C@H]1C(=O)N[C@@H](CC(N)=O)C(=O)N[C@@H](CC(=O)O)C(=O)N[C@@H](CCC(N)=O)C(=O)N[C@@H](Cc1ccc(O)cc1)C(=O)N[C@@H](CCC(=O)O)C(=O)N1CCC[C@H]1C(=O)N[C@@H](Cc1ccccc1)C(=O)O)C(C)C)C(C)C [copper-64 labelled] gave a tissue uptake of 2.09 ± 0.2 %ID/g (C57BL/6 mice, male, MC-38 tumour-bearing, tumor; 2 h, vehicle-treated).
CC[C@H](C)[C@H](NC(=O)[C@H](CCCNC(=N)N)NC(=O)[C@H](CCCCN)NC(=O)[C@H](Cc1ccc(O)cc1)NC(=O)[C@H](CC(=O)O)NC(=O)[C@H](C)NC(=O)CNC(=O)CCOCCOCCOCCNC(=O)CN1CCN(CC(=O)O)CCN(CC(=O)O)CCN(CC(=O)O)CC1)C(=O)N[C@H](C(=O)N[C@@H](CC(C)C)C(=O)N[C@@H](CCCCN)C(=O)N[C@H](C(=O)N[C@@H](CC(N)=O)C(N)=O)C(C)C)[C@@H](C)O [copper-64 labelled] has a tissue uptake of 1.64 ± 0.482 %ID/g (ex vivo gamma counting; C57BL/6J male mice, B16-F10 tumour, stomach; intravenous, 1.85 MBq, 100 min).
The tissue uptake of C[C@H](O)[C@@H](NC(=O)[C@H]1CCCN1C(=O)[C@@H](CCCCN)NC(=O)[C@@H](CO)NC(=O)[C@@H](Cc1ccc(O)cc1)NC(=O)[C@@H](CC(N)=O)NC(=O)CCOCCOCCOCCNC(=O)CN1CCN(CC(=O)O)CCN(CC(=O)O)CCN(CC(=O)O)CC1)C(=O)N[C@H](CC(=O)O)C(=O)N[C@H](CCCNC(=N)N)C(=O)N[C@H](CCC(N)=O)C(=O)N[C@H](Cc1ccc(O)cc1)C(=O)N[C@H](Cc1c[nH]cn1)C(=O)N[C@H](Cc1ccccc1)C(N)=O [gallium-68 labelled] is reported as 1.64 ± 0.42 %ID/g (BALB/c nude mice U-87 MG tumour, lung; intravenous, 1.85 MBq, 0.08333 h, radiolabelled).
The tissue uptake of O=C([O-])CNC(=O)CN1CCN(CC(=O)NCC(=O)[O-])CCN(CC(=O)NCC(=O)[O-])CCN(CC(=O)NCC(=O)[O-])CC1.[177Lu+3] is reported as 0.018 ± 0.005 % injected dose/g (Sprague-Dawley rat, bone; intravenous (tail vein), dose not given, 2 h).
CN1Cc2cc(Cl)ccc2-n2c(nnc2C2CCN(c3cccc([18F])n3)CC2)C1 has a tissue uptake of 3.07 ± 1.38 %ID/g (C57BL/6 mouse male, muscle; intravenous, 3.7 MBq, 30 min).
